# Published values pooled from the literature.
# Numbered parts are unrelated; each lists some results of a single study. Positions count from the first letter of the parent shown.

# Set 1
# Target: RNA binding protein fox-1 homolog 2, RRM domain, GST-SBP tag (RBFOX2, Homo sapiens, UniProt O43251-10, residues 100-194)
# Technique: RNA Bind-n-Seq
# Form: RNA
# Matrix: in vitro
# Concentration: 365 nM
# Notes: natural RNA segment, single round, ends assumed
# Reference: no-protein control
# Reading: higher = stronger binding
# Shared flanks, not repeated: GGGAGUUCUACAGUCCGACGAUC … UGGAAUUCUCGGGUGCCAA
# Construct (chain): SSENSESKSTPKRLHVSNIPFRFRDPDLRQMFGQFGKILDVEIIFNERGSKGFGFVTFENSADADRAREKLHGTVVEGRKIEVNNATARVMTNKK
Strand,RBNS enrichment (R)
AGUGAGUGUGGCCUAGGAACAGGUCCCUUCCUAAGCUCUAGUGUCCCCAUCUGUAAAAUGGGCUGAUUGGCCUCCACGGUCAGAGCGGCCAUCUGGCUGUGCCAUCCUGC,0.285
AUAUCAGAAACUCACAAACCUAGACAUGGAAAAACAGAUUACUGUCUAUUGUCAGCAUCAUUUUCAUCUGUAAGUCACUACUGGAAUAUAUUUUUCUUUUAAUUUCCAGU,0.514
UGGAGUUUACCAUGUUACCCUGUAAUUAAAAACAAAGAAUAGGUAACAUAUUGUGCCAGUGUUGCAACGUUUUAAACUGCUAACAGACCUUAAAAUAUCCCCCUACCUGG,0.228
ACUAAACAAGGUUUUUAUGAAUAAUAGCAUUGAUAUAUAUAUAUUAUAUAUCACCCUUUAGAUCUUGAUUUCUUGGUCAUUUCUCAACCUGAGGUGCAUAGCAUAUUCCC,0.673
UGUCACUUCAGCACAUCUUCCACAGCUGCCCAGCUGUCUUUGGUGUGUCCCGGAGGAACAGGCUAAGCAAGGGGCCCAGGAAGUUGUCCAGAGGACAGGGGCUAAUGAGC,0.535
GCCAACCGGCUGCUCUAGGCUCCUGAGGAGUGUCCCUUCUCAAAGGAACUGCGCCCUGGAAAGGGCUCCCCGAAGUUCUAGGUGGCCUUGACCUGACACUUGCAUUUUCU,1.34
AUUGCAACAAAGUUAGGAAGUUUGUUGUUUGUUUAUUAUAAACAAAAAGCAUGUGAAAGUGCACUUAAGAUAGAGUUUUUAUUAAUUACUUACUUAUUACCUAGAUUUUA,2.19
UGUUGUCAGCAUGAUUCAUGUAUUUAUAUAGAUUUGAUUAUUUUAAUUUUCCUGUCUCUUUUUUUUGUAAAUUUUAUGUACAGAUUUGAUUUUUCAUAGUUUUAACUAGA,2.85
AGCCCCUCUCGGGGACUCUGGGGGUGCCAUCCCCCACUCUUCUUCCAGCCACUCUCGGGCCCCACUCCCACAUCAUCUCAGAAACCCUUCAGCCCUCGCAACUCGCCCCU,0.956
AGGAGCUUUCUUUUAUGUAAAUUGGAUAAAUACACACACCAUACACUAUCCACAGAUAUAGCCAAGUAGAUUUGGGUAGAGGAUACUAUUUCCAGAAUAGUGUUUAGCUC,0.707
GUCUGCUUUUAAUGCAGCUGUGGACUGAGGUGUGGCUCAGAGGACACUUGUUCACUAAGUGUAAGACCCUGGUAUCCUUUCCUAGAACUGUCAAAAAUAAAUGGAUGGAU,0.517
GCUCUUUUAAGUGAAUUUUCAAAUGAAAUGAACUAUGCUUAUUGCUGGCACAUUGAUCCCAUUUCUGGAACAUUUCCUACUUCCAGAAUUCCGUAUGUUCCUUAGACAUU,0.222

# Set 2
# Target: CCNF, cyclin fold, Cln2 fusion (human)
# Technique: yeast growth competition, sequencing
# Matrix: yeast
# Notes: strong parent motif
# Reference: not given
# Reading: higher = stronger binding
# Starting sequence: E2F2 docking peptide (human); LPAKRKLDLEGIG; partner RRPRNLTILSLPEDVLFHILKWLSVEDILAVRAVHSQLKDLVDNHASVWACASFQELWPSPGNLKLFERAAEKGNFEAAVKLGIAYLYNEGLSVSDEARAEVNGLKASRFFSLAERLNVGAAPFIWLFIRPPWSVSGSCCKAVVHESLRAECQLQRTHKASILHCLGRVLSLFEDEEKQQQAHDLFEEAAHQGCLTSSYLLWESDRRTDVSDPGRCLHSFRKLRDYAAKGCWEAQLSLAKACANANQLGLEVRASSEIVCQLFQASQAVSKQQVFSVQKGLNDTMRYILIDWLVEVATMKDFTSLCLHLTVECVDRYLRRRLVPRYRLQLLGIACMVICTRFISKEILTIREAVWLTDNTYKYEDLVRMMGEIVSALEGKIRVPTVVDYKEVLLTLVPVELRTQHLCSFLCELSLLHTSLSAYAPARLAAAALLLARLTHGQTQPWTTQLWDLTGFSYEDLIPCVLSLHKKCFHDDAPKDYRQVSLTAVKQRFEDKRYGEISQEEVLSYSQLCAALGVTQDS
Change,normalised enrichment score
LPAKRKLDLEAIG [G11A],5.04
LPAKRALDLEGIG [K6A],3.35
LAAKRKLDLEGIG [P2A],7.98
LPAARKLDLEGIG [K4A],7.05
LPAKKKLDFEGIG [R5K L9F],7.16
LPAKRKLDFEGIG [L9F],6.94
LPAKAKLDLEGIG [R5A],0.69
LPAKRKLALEGIG [D8A],4.51
LPAKAKADLEGIG [R5A L7A],0.366

# Set 3
# Target: Ras GTPase-activating protein-binding protein 1, full length (G3BP1, Homo sapiens, UniProt Q13283)
# UniProt Q13283, sequence (whole entry, looked up): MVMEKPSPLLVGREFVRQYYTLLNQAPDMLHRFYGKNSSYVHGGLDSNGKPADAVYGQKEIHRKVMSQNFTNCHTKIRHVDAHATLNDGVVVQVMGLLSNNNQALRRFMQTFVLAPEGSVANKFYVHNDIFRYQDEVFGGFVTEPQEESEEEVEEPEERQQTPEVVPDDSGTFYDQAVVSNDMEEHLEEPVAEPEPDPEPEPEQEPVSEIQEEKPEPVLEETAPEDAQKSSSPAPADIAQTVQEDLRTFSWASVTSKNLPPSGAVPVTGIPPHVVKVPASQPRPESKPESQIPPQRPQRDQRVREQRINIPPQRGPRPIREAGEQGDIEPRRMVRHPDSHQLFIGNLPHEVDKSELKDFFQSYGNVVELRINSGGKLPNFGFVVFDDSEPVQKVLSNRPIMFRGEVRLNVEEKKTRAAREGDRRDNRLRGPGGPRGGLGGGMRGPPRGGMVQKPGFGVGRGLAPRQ
# Technique: RNA Bind-n-Seq
# Form: RNA
# Matrix: in vitro
# Concentration: 200 nM
# Notes: whole 134-nt RNA, ends assumed
# Together with: 150 mM KCl
# Reference: input library
# Reading: higher = stronger binding
# Shared flanks, not repeated: GGGAGUUCUACAGUCCGACGAUC … UGGAAUUCUCGGGUGUCAAGG
Strand,log2 enrichment
UGCCCUCCGUGGAGUCUUUGUUUCGAAGUCCGAUAAAGGAAUCUCUAUUCCGGUCUUCUUCUAAAGAGUCUUUGGUACGAACAUCUUCCA,-1.19
AAGUCCUGUGCUACACAUCGUAUGUACCGAAUCGGGGAGGGGUGGGGUUUUUGGGGAAAGUAUUAUGUUACGCCGUUCGGAUCUGCACUU,0.415
AAGUCCUGUGCUACACAUCGUAUGUACCGAAUCGGAAAGGGGAAAGGGGAAAGGGGAAAGUAUUAUGUUACGCCGUUCGGAUCUGCACUU,-0.0289
ACCAUGCAGGUGGGCAUCUUUGGGAAGUGGGGCAAGGGGGGGAUAGGGAGGGGGGUAACACUUUGGGAACAGGAAAUCCCAGGUCGUUUC,0.797
AAGUCCUGUGCUACACAUCGUAUGUACCGAAUCGGGUUUUGGGUUUUGGUUUUGGGGAAAGUAUUAUGUUACGCCGUUCGGAUCUGCACU,-0.574
CAAGUCCUGUGCUACACAUCGUAUGUACCGAAUCGGGUGGGAAAAAGGGAAAGGGAAAGUAUUAUGUUACGCCGUUCGGAUCUGCACUUC,0.599
UGGGAGACGAUCGCGAUGAACACGGUGCUGUCGCGGGCGAACUCACUGUUCGCCUUCUCGCUGAGCGUGAUGGCGGCGCUCACCUUCGGC,-1.84
CUCAAGUCCUGUGCUACACAUCGUAUGUACCGAAUCGGUUGGGGUUGGGGUUGGAAAGUAUUAUGUUACGCCGUUCGGAUCUGCACUUCC,-0.0254
CACAGACAACACGCACCCACACAGACACAGAGGGAAGAGGUUGGGAUGGGGACAGGGUGCACAGCAGGGCGGGGUAGGACCCCAGCCCCU,1.82
GUCCUGUGCUACACAUCGUAUGUACCGAAUCGGGGUUUUGGGGUUUUGGGUUUUGGGGAAAGUAUUAUGUUACGCCGUUCGGAUCUGCAC,0.234
CAAGUCCUGUGCUACACAUCGUAUGUACCGAAUCGGGGAAAGGGGAGGGGUGGGGAAAGUAUUAUGUUACGCCGUUCGGAUCUGCACUUC,1.29
AGUCCUGUGCUACACAUCGUAUGUACCGAAUCGGUUUUUGGGUUUUUGGUUUUUGGGGAAAGUAUUAUGUUACGCCGUUCGGAUCUGCAC,-1.01
ACCUUGCAGGUGGGCAUCUUUGGGAAGUGGGGCAAGGGGGGGAUAGGGAGGGGGGUAACACUUUGGGAACAGGUGGUCCCAGGUCGUUUC,1.14
UCAAGUCCUGUGCUACACAUCGUAUGUACCGAAUCGGGAGGGUGGGUUUUUGGGAAAGUAUUAUGUUACGCCGUUCGGAUCUGCACUUCC,0.643

# Set 4
# Target: ABI1, truncated, D143A, DHFR fusion (Arabidopsis thaliana)
# Technique: DHFR PCA, deep sequencing
# Matrix: yeast
# Notes: methotrexate growth selection, single substitutions
# Together with: (+)-ABA 200 µM
# Reference: wild-type fitted maximum
# Reading: higher = stronger binding
# Starting sequence: PYL1, truncated, DHFR fusion (Arabidopsis thaliana); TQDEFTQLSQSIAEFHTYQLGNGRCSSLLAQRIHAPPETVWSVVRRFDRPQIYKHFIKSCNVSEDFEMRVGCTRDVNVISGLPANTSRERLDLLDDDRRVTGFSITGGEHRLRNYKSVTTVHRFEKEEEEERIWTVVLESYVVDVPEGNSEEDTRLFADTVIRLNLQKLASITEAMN
Change,relative binding score
I12T,73%
R98K,120%
I172K,77.7%
R113G,86.1%
H55E,98.2%
E14G,71.1%
R69M,99.3%
G148K,74.4%
T17W,71.8%
Q31P,-1.4%
Y115I,-1.12%
S59D,101%
E152V,93.7%
D159M,27.7%
W41G,-12.4%
V40S,-0.142%
V137F,-8.45%
L82C,79.6%
I172G,39%
S42W,74.3%

# A few entries again (set 4):
Change,relative binding score
L82C,79.6%
V137F,-8.45%
Y115I,-1.12%
W41G,-12.4%
R98K,120%
S59D,101%
